Measured values gathered from unrelated publications.
Lines come from different studies, so protocols differ. Numbers after ± are the reported error.

CC[C@H](C)[C@H](NC(=O)[C@H](C)NC(=O)[C@H](CC(C)C)NC(=O)[C@H](Cc1ccc(O)c(I)c1)NC(C)=O)C(=O)NCCCCCC(=O)N1CCC[C@H]1C(=O)N[C@@H](C)C(=O)N[C@@H](CC(=O)O)C(=O)N[C@@H](CCC(=O)O)C(=O)N[C@H](C(=O)N[C@@H](CC(=O)O)C(=O)NCC(=O)N[C@@H](CCCNC(=N)N)C(=O)N[C@@H](CCCNC(=N)N)C(=O)N[C@@H](CCCNC(=N)N)C(=O)N[C@@H](CCCN)C(=O)N[C@@H](CCCNC(=N)N)C(=O)N[C@@H](CCCNC(=N)N)C(=O)N[C@@H](CCCCN)C(=O)N[C@@H](CCCCN)C(=O)N[C@@H](CCCNC(=N)N)C(=O)N[C@@H](CCCCNC(=O)CN1CCN(CC(=O)O)CCN(CC(=O)O)CCN(CC(=O)O)CC1)C(N)=O)C(C)C [iodine-125 labelled] — tumour uptake (BALB/c mouse, orthotopic 4T1 tumours, tumour; dose not given, 1 h): 2.4 ± 0.3 %ID/g
C=CC(=O)N1C[C@H](C)N(c2nc(OC[C@@]34CCCN3C[C@H](F)C4)nc3c(F)c(-c4ccc(F)c5sc(N)c(C#N)c45)c(C(F)(F)F)cc23)C[C@H]1C — tumour volume reduction (NCI-H358 xenograft, mouse; oral, 1 mg/kg once daily, 28 days): 71%
Cc1cc(O)cc(O)c1C(=O)c1c2c3c(c(O)cc(C)c3oc1=O)C(=O)c1c(O)cc(O)cc1-2 — tumour growth inhibition (H22 subcutaneous, mouse; intraperitoneal, 45 mg/kg daily): 66%
C[C@H](NC(=O)CNC(=O)[C@H](CCC(=O)O)NC(=O)[C@H](CCC(=O)O)NC(=O)[C@H](CC(=O)O)NC(=O)[C@@H]1CCCN1C(=O)[C@H](Cc1ccccc1)NC(=O)[C@H](CS)NC(=O)[C@H](Cc1ccc(O)cc1)NC(=O)CCCNC(=O)CNC(=O)CNC(=O)[C@@H](C)NC(=O)CN)C(=O)N[C@@H](CS)C(=O)N[C@@H](Cc1ccc(O)cc1)C(N)=O [technetium-99m labelled] — tumour to non-tumour ratio (SPECT; BALB/c nude mouse, SKBR3 tumour; intravenous, 37 MBq, 60 min): 4.23
CS(=O)(=O)c1sc(NC(=O)Nc2ccc(Cl)cc2)c2c1C=CCC2 — tumour volume (MIA PaCa-2 xenograft, mouse; intraperitoneal, 10 mg/kg daily, 28 days): 858 ± 197 mm³
Clc1ccc2ccc3[n+](c2c1)[Ir-3]12([c]4ccccc4-3)([c]3ccccc3-c3ccc4ccc(Cl)cc4[n+]31)[n+]1ccccc1-c1cccc[n+]12.F[P-](F)(F)(F)(F)F — tumour weight reduction (BALB/c mouse, 4T1 allograft; intraperitoneal, 4 mg/kg daily, 18 days): 51.7%
CO.Cc1ccc2c(Cl)cc(Cl)c([O-])c2n1.Cc1ccc2c(Cl)cc(Cl)c([O-])c2n1.[Co+2].c1ccc2nc3c4cccnc4c4ncccc4c3nc2c1 — tumour growth reduction (HeLa xenograft, nude mouse; 2.0 mg/kg every 2 days; reference: cisplatin): ~1.3 fold
CC=C1C(OC2OC(CO)C(O)C(O)C2O)OC=C(C(=O)OC)C1CC(=O)OCC1OC(OCCc2ccc(O)cc2)C(O)C(O)C1O (stereo not drawn) — tumour weight decrease (BALB/c mouse, orthotopic colon 26 tumour; oral, 109.2 mg/kg daily, 10 days; reference: untreated tumour group): 24.4%
Cc1cc2c(cc1O)C=C1C=CC(=O)C(C)(C)[C@H]1CC2 — tumour incidence (mouse AOM/DSS colitis-associated cancer; 50 mg/kg, day 84): 62.5%
CCCC[C@H](NC(=O)COCCOCCNC(=O)CN1CCN(CC(=O)O)CCN(CC(=O)O)CC1)C(=O)N[C@H]1CC(=O)NCCCC[C@@H](C(N)=O)NC(=O)[C@H](Cc2c[nH]c3ccccc23)NC(=O)[C@H](CCCNC(=N)N)NC(=O)[C@@H](Cc2ccccc2)NC(=O)[C@H](Cc2c[nH]cn2)NC1=O [copper-64 labelled] — tumour uptake blocked (C57 mouse, B16/F10 melanoma; dose not given, 2 h post-injection, with: NDP-MSH 6.07 nmol): ~88%
CC(C)[C@H](CO)Nc1nc(Nc2ccc(C(=O)NCCNS(=O)(=O)c3cccc4c(N(C)C)cccc34)c(Cl)c2)c2ncn(C(C)C)c2n1 — tumour volume (MRI; ND2-SmoA1 mouse medulloblastoma; intraperitoneal, 20 mg/kg three times weekly, up to 12 weeks): 0.31 ± 0.25 mm³
NC(=O)c1cccnc1.O.O=c1[nH]cc(F)c(=O)[nH]1.O=c1[nH]cc(F)c(=O)[nH]1.O=c1[nH]cc(F)c(=O)[nH]1 — tumour growth inhibition (nude mouse HCT-116 xenograft; 0.006 mmol/kg/day, 21 days): 25.6%

Repeated from above:
CS(=O)(=O)c1sc(NC(=O)Nc2ccc(Cl)cc2)c2c1C=CCC2 — tumour volume (MIA PaCa-2 xenograft, mouse; intraperitoneal, 10 mg/kg daily, 28 days): 858 ± 197 mm³
NC(=O)c1cccnc1.O.O=c1[nH]cc(F)c(=O)[nH]1.O=c1[nH]cc(F)c(=O)[nH]1.O=c1[nH]cc(F)c(=O)[nH]1 — tumour growth inhibition (nude mouse HCT-116 xenograft; 0.006 mmol/kg/day, 21 days): 25.6%
